Experimental data gathered from unrelated publications.
Several values in a cell are separate wells, animals, samples, runs or records. Numbers after ± are the reported error.
WD repeat-containing protein 91: WD repeat-containing protein 91 (Homo sapiens, UniProt A4D1P6)
Chain of UniProt A4D1P6 (whole entry, looked up): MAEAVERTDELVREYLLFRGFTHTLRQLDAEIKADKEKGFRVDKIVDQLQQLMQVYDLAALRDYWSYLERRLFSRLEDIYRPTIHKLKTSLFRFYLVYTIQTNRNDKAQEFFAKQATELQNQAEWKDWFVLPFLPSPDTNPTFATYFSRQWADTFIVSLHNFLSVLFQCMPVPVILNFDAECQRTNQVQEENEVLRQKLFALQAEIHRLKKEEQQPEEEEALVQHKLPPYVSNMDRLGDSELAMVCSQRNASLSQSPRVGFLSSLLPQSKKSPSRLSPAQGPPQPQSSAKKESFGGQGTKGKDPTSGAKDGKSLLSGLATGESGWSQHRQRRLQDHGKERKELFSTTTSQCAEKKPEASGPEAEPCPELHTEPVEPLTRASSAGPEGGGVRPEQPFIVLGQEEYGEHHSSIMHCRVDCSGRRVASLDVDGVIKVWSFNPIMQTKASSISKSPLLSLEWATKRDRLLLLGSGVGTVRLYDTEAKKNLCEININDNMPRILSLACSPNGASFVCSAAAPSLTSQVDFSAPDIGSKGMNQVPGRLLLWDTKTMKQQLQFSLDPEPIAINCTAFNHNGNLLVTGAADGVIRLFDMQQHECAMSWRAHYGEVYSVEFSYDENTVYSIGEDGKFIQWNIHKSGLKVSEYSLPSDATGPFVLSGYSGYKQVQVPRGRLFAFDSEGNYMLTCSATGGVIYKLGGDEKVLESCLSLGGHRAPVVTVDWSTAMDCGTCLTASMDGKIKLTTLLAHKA
ESR1: Estrogen receptor (ESR1, Homo sapiens, UniProt P03372)
Genome polyprotein NS3 helicase domain: Genome polyprotein, NS3 helicase domain (Hepatitis C virus genotype 1b, UniProt Q9WMX2)
WD repeat-containing protein 91 WD40 domain, residues 392–747: WD repeat-containing protein 91, WD40 domain, residues 392–747 (Homo sapiens, UniProt A4D1P6)
Chain of UniProt O76090 (whole entry, unmodified, looked up): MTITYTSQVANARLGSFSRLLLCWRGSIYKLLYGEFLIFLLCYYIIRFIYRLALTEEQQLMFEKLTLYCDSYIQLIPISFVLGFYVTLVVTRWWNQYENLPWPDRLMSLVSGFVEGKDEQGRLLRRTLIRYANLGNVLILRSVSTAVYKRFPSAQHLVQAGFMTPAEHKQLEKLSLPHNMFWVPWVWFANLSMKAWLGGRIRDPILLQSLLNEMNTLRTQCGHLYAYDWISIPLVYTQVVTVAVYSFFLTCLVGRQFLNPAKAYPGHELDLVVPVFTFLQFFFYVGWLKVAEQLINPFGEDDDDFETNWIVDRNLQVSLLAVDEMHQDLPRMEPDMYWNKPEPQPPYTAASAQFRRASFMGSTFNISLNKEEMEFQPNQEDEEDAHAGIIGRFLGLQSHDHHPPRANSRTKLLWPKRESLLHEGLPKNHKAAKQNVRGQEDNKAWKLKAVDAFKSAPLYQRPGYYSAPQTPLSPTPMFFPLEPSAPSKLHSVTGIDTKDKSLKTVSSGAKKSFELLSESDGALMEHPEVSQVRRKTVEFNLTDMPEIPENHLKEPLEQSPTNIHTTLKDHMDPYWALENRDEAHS
Chain of UniProt Q16774 (whole entry, unmodified, looked up): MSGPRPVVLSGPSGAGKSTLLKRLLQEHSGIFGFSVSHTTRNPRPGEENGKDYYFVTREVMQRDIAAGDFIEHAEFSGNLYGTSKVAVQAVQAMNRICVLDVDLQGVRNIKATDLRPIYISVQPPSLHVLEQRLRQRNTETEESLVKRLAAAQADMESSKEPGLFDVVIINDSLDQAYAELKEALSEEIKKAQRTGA
Chain of UniProt P51575 (whole entry, unmodified, looked up): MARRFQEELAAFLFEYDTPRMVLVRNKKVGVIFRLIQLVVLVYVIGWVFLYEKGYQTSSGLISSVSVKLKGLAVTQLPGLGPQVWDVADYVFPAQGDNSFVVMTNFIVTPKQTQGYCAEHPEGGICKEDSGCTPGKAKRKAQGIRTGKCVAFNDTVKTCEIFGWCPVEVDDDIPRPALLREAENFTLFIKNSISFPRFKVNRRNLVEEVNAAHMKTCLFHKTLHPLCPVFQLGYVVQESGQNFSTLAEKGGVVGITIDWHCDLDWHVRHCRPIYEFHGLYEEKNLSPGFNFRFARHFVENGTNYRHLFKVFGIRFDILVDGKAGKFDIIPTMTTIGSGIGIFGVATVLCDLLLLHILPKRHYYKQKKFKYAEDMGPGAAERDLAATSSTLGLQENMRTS
Chain of UniProt P00441 (whole entry, unmodified, looked up): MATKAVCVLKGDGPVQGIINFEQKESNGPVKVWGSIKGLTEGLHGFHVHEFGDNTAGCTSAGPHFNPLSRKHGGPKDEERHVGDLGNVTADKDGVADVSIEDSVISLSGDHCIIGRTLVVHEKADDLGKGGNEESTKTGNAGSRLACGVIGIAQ

`Nc1nc2c(ncn2[C@@H]2O[C@H](COP(=O)(O)O)[C@@H](O)[C@H]2O)c(=O)[nH]1` has a reaction rate of 28.4 s⁻¹ and 28.8 s⁻¹ and 27.7 s⁻¹ (GUK1 (Homo sapiens, UniProt Q16774, T83A); enzyme activity, NADH-coupled; 1000 µM).
For `CCn1c(=O)[nH]c2cc(C(=O)NC(c3ccc(F)cc3)c3cnn(C)c3)ccc2c1=O` (centres unmarked), the SPR response was 4.93 RU (WD repeat-containing protein 91; binding, SPR steady state; 0.4688 µM).
The remaining activity of `COc1cc(Nc2ncc3c(n2)-c2ccc(Cl)cc2C(c2c(F)cccc2OC)=NC3)ccc1C(=O)O` is reported as 104% (PRKG2; kinase activity; 1 µM).
Under “binding enthalpy (ΔH)”, `Nc1ncnc2c1ncn2[C@@H]1O[C@H](COP(=O)(O)OP(=O)(O)NP(=O)(O)O)[C@@H](O)[C@H]1O` is recorded as -1.9 kcal/mol (Cell cycle histidine kinase CckA, CA domain (Caulobacter vibrioides, UniProt Q9X688); isothermal titration calorimetry; Caulobacter crescentus; concentration not given, 12 °C, added: without c-di-GMP).
With `[O-][S+]1CCCCS1` (centres unmarked) the target engagement was 53.1% (Superoxide dismutase [Cu-Zn] (SOD1, Homo sapiens, UniProt P00441, G94A); intact protein LC-MS; SOD1 G93A transgenic mice, whole blood; intravenous, 10 mg/kg, 4 h, mean of two mice).
For `CC[C@H](C)[C@H](NC(=O)[C@H](CCCCN)NC(=O)CNC(=O)[C@@H](NC(=O)[C@@H](NC(=O)[C@H](CCSC)NC(=O)[C@H](Cc1c[nH]cn1)NC(=O)CN)[C@@H](C)O)C(C)C)C(=O)N[C@@H](Cc1ccc(O)cc1)C(=O)N[C@@H](C)C(=O)N[C@@H](C)C(=O)N[C@@H](CCSC)C(=O)N[C@@H](CCSC)C(=O)N[C@H](C(=O)N[C@@H](CCSC)C(=O)N[C@@H](CCC(=O)O)C(=O)N[C@@H](C)C(=O)N[C@@H](Cc1ccc(O)cc1)C(=O)N[C@@H](CCCNC(=N)N)C(=O)N[C@@H](CCC(N)=O)C(=O)N[C@@H](CO)C(=O)N[C@@H](CCCCN)C(=O)N[C@@H](C)C(=O)N[C@@H](CCCCN)C(=O)N[C@@H](CCCCN)C(=O)N[C@@H](CC(C)C)C(=O)N[C@@H](CCC(N)=O)C(=O)N[C@@H](C)C(=O)N[C@@H](CCSC)C(=O)N[C@@H](CCCNC(=N)N)C(=O)O)[C@@H](C)CC`, the ΔS was 14.4 ± 1.7 cal/mol/K (Calmodulin-1, Ca2+-bound N-lobe (CALM1, Homo sapiens, UniProt P0DP23); binding, isothermal titration calorimetry; pH 7.4, 15 °C, N-lobe, CaV2.1 IQ domain, added: Ca2+).
The selectivity ratio of `O=c1c(O)c(-c2cc(O)c(O)c(O)c2)oc2cc(O)cc(O)c12` is reported as 5.16 (ESR1; array formation; PRL-HeLa; baseline: EC50 ERβ over EC50 ERα).
`OC[C@H]1O[C@H]([S-])[C@H](O)[C@@H](O)[C@@H]1O.[Au+]` gave an inhibition of 36% (Genome polyprotein NS3 helicase domain; DNA binding, inhibitor; hepatitis C virus; 100 µM, added: Cy5-dT15 DNA).
For `N#CC1CCN(C(=O)c2ccc(C=Cc3ccc4ccccc4n3)cc2)CC1`, the binding was 7% and 9% (WD repeat-containing protein 91 WD40 domain, residues 392–747; SPR; 45 µM).
The Hill coefficient of `C(/C=C/c1sc2c3ccccc3ccc2[n+]1CCCc1ccccc1)=C1/Sc2c(ccc3ccccc23)N1CCCc1ccccc1.[I-]` is reported as 1.65 (Protein arginine N-methyltransferase 3 (PRMT3, Homo sapiens, UniProt O60678); inhibitor, filter binding; added: R4 peptide substrate).
`N#CC1CCN(C(=O)c2ccc(S(=O)(=O)N3CCCc4ccccc43)cc2)CC1` gave a binding of 8% and 1% (WD repeat-containing protein 91 WD40 domain, residues 392–747; SPR; 45 µM).
`COc1cc(/C=C/C(=O)C(=Cc2cccc(O)c2)C(=O)/C=C/c2ccc(O)c(OC)c2)ccc1O` gave a ΔH of -23.4 ± 0.313 kcal/mol (haemin; binding, isothermal titration calorimetry; pH 7.4, 37 °C).
The SPR response of `O=C(NC1CCCS(=O)(=O)c2ccccc21)c1ccc2nc(O)cnc2c1` (centres unmarked) is reported as 45.3 RU (WD repeat-containing protein 91; binding, SPR steady state; 30 µM).
With `OC(CCN1CCCCC1)(c1ccccc1)C1CCCCC1` (centres unmarked) the inhibition was 0% (Genome polyprotein NS3 helicase domain; 100 µM).
Under “normalised MST signal”, `NCCCC(=O)O` is recorded as 0.106 (Sodium- and chloride-dependent taurine transporter (SLC6A6, Homo sapiens, UniProt P31641, L306A); binding, microscale thermophoresis; 7.81 µM, room temperature, added: 50 nM labelled protein; higher = more binding).
`COc1ccc(-c2cc(=O)c3c(O)cc(O[C@@H]4O[C@H](CO[C@@H]5O[C@@H](C)[C@H](O)[C@@H](O)[C@H]5O)[C@@H](O)[C@H](O)[C@H]4O)cc3o2)cc1` has a selectivity ratio of 0.582 (ESR1; array formation; PRL-HeLa; baseline: EC50 ERβ over EC50 ERα).
With `CC(C)(Sc1ccc(CCN(CCCCC2CCCCC2)C(=O)NC2CCCCC2)cc1)C(=O)O` the inhibition was 3% (Genome polyprotein NS3 helicase domain; DNA binding, inhibitor; hepatitis C virus; 100 µM, added: Cy5-dT15 DNA).
With `O=O` the Km was 440 ± 150 µM (Hypoxia-inducible factor 1-alpha inhibitor (HIF1AN, Homo sapiens, UniProt Q9NWT6, Y93A); substrate, MALDI-TOF MS; pH 7.00, 37.0 °C, mutant Y93A, added: CTAD peptide 80 µM, 2-oxoglutarate 100 µM).
For `CCC1(O)CCCN(C(=O)c2ccc(-c3ccc(F)c(NC(=O)CCl)c3)cc2)C1` (centres unmarked), the protein adduct was 0% (DNA dC->dU-editing enzyme APOBEC-3A (Homo sapiens, UniProt P31941); covalent modifier, intact protein mass spectrometry, refers to: adduct +26691 Da; 125 µM, 3 h, 5-fold molar excess).
`CC12CC3CC(C)(C1)CC(N)(C3)C2` gave a potentiation of 85% (Glutamate receptor 2 (Homo sapiens, UniProt P42262); ion current, positive allosteric modulator, SyncroPatch patch clamp; HEK293; 3 µM).
`N#Cc1cccc2c1CC[C@H]2NC(=O)c1ccc(-c2ccco2)[nH]1` has a binding of 56% (WD repeat-containing protein 91, residues 392–747 (Homo sapiens, UniProt A4D1P6); SPR dose-response titration; concentration not given, 1:1 binding model).
With `COc1cc(/C=C2\CC/C(=C\c3ccc(O)c(OC)c3)C2=O)ccc1O` the binding stoichiometry was 0.52 ± 0.24 (haemin; isothermal titration calorimetry; concentration not given, pH 7.4, 37 °C).
`CC(C)(C)OCCC(=O)NC1CCN(c2ncnc3c2nc(-c2ccccc2Cl)n3-c2ccc(Cl)cc2)CC1` gave a Ke of 1.7 nM (Cannabinoid receptor 1 (CNR1, Homo sapiens, UniProt P21554); antagonist, FLIPR calcium mobilisation; CHO-K1 expressing CNR1 and Gαq16; added: CP55940).
With `Nc1ccc(C(=O)O)cc1` the current density was -5.55 pA/pF and -4.19 pA/pF and -5.93 pA/pF and -9.32 pA/pF and -2.05 pA/pF and -2.75 pA/pF (BEST1, with wild-type BEST1 (Homo sapiens, UniProt O76090, A10T); whole-cell patch clamp; HEK293 co-expressing WT and A10T mutant; concentration not given, membrane potential -20 mV).
`COc1ccc(-c2cncc(C(=O)N[C@@H]3CCc4c(C#N)cccc43)c2)c(C)c1` gave an SPR response of 32.3 RU and 31.5 RU (WD repeat-containing protein 91 WD40 domain, residues 392–747; binding, SPR single-concentration screen; 45 µM).
The inhibition of `O=C1c2ccccc2C(=O)c2c(NCCc3ccc(O)cc3)ccc(NCCc3ccc(O)cc3)c21` is reported as 13% (Genome polyprotein NS3 helicase domain; DNA binding, inhibitor; hepatitis C virus; 100 µM, added: Cy5-dT15 DNA).
`CC[C@H](C)[C@H](NC(=O)[C@H](C)NC(=O)[C@H](CCSC)NC(=O)[C@H](C)NC(=O)[C@H](C)NC(=O)[C@H](Cc1ccc(O)cc1)NC(=O)[C@@H](NC(=O)[C@H](CCCCN)NC(=O)CNC(=O)[C@@H](NC(=O)[C@@H](NC(=O)[C@H](CCSC)NC(=O)[C@H](Cc1c[nH]cn1)NC(=O)CN)[C@@H](C)O)C(C)C)[C@@H](C)CC)C(=O)N[C@@H](CCSC)C(=O)N[C@@H](CCC(=O)O)C(=O)N[C@@H](Cc1ccc(O)cc1)C(=O)N[C@@H](Cc1ccc(O)cc1)C(=O)N[C@@H](CCCNC(=N)N)C(=O)N[C@@H](CCC(N)=O)C(=O)N[C@@H](CO)C(=O)N[C@@H](CCCCN)C(=O)N[C@@H](C)C(=O)N[C@@H](CCCCN)C(=O)N[C@@H](CCCCN)C(=O)N[C@@H](CC(C)C)C(=O)N[C@@H](CCC(N)=O)C(=O)N[C@@H](C)C(=O)N[C@@H](CCSC)C(=O)N[C@@H](CCCNC(=N)N)C(=O)O` gave a ΔH of -2.4 ± 0.56 kcal/mol (Calmodulin-1, Ca2+-bound C-lobe (CALM1, Homo sapiens, UniProt P0DP23); binding, isothermal titration calorimetry; pH 7.4, 15 °C, C-lobe, CaV2.1 IQ domain, added: Ca2+).
For `C=C1CN(S(=O)(=O)c2ccc(C)cc2)CCCN(Cc2ccccc2)CCCN(S(=O)(=O)c2ccc(C)cc2)C1`, the FLuc/RLuc ratio was 1.03 (Protein transport protein Sec61 subunit alpha isoform 1 (Homo sapiens, UniProt P61619); refers to: control signal peptide-FLuc reporter; HEK293; 0.37 mM, 6 h).
The inhibition of `N=C(N)NC(=O)c1nc(Cl)c(N)nc1N` is reported as 1% (Genome polyprotein NS3 helicase domain; DNA binding, inhibitor; hepatitis C virus; 100 µM, added: Cy5-dT15 DNA).
The specific binding of `Nc1ncnc2c1ncn2[C@@H]1O[C@H](COP(=O)(O)CP(=O)(O)OP(=O)(O)O)[C@@H](O)[C@H]1O` is reported as 1610 CCPM and 1960 CCPM (P2X purinoceptor 1 (P2RX1, Homo sapiens, UniProt P51575, L218T); saturation binding; HEK293; 25 nM).
`O=C(O)[C@@H](O)[C@@H](O)[C@H](O)[C@H](O)CO` has a delta Tm of 7.1 °C (Uncharacterized protein (Chromohalobacter israelensis, UniProt Q1QT90); binder, thermal shift).
With `O=C(c1ccc(F)cc1)C1CCN(CCn2c(=O)[nH]c3ccccc3c2=O)CC1` the inhibition was 2% (Genome polyprotein NS3 helicase domain; DNA binding, inhibitor; hepatitis C virus; 100 µM, added: Cy5-dT15 DNA).
The Emax of `CCCCC[C@H](O)/C=C/[C@H]1[C@H](O)CC(=O)[C@@H]1C/C=C\CCCC(=O)O` is reported as 98.8 ± 4.99% (Prostaglandin E2 receptor EP1 subtype (PTGER1, Homo sapiens, UniProt P34995, S306A); IP1 accumulation, agonist; AD293; 1 h, EP1 S306A mutant).
For `COc1cc(/C=C/c2ccc(O)cc2)cc(OC)c1`, “ΔG of binding” read -7.74 kcal/mol (O-methyltransferase (Sorghum bicolor, UniProt A0A1B6PFV1); isothermal titration calorimetry; concentration not given, apo protein).
With `Cc1ccc(Cl)c(Nc2ccccc2C(=O)O)c1Cl` the inhibition was 0% (Genome polyprotein NS3 helicase domain; DNA binding, inhibitor; hepatitis C virus; 100 µM, added: Cy5-dT15 DNA).
With `NC(=O)CC[C@H](N)C(=O)O` the product formation was 2.28 µM (N-alpha-acetyltransferase 80 (NAA80, Homo sapiens, UniProt Q93015); substrate, DTNB; 2 mM, 30 min, 37 °C, added: acetyl-CoA 500 µM).
`O=C(COP(=O)(O)O)[C@@H](O)[C@H](O)[C@H](O)COP(=O)(O)O`: “thermal stability ratio” 3.79 (Germinal-center associated nuclear protein, 80 kDa isoform (MCM3AP, Homo sapiens, UniProt O60318); thermal proteome profiling, refers to: MCM3AP; HepG2 cell lysate; concentration not given, 57 over 37 °C, mean; baseline: compound over control).
`C[C@]12CC[C@@H]3c4ccc(O)cc4C[C@@H](CCCCCCCCC[S+]([O-])CCCC(F)(F)C(F)(F)F)[C@H]3[C@@H]1CC[C@@H]2O` (some centres unmarked) gave an antagonist response of 49.8% (ESR1; antagonist, CALUX reporter; U2OS; 3e-10 µg/mL).
With `Nc1ncnc2c1ncn2[C@@H]1O[C@H](CO)[C@@H](O)[C@H]1O` the Km was 39 ± 5 µM (Chimera-2 enzyme (Aplysia californica); deamination, substrate, spectrophotometric; Tris-HCl buffer with NaCl).
`O=c1nc(SCc2ccc(C(F)(F)F)cc2)nc(SCc2csc3ccc(Cl)cc23)[nH]1` has a decatenated DNA of 98.5% (DNA topoisomerase 2-alpha (TOP2A, Homo sapiens, UniProt P11388); decatenation; 7.8 µM, replicate 1).
`CCC(=O)NS(=O)(=O)c1ccc(-c2c(-c3ccccc3)noc2C)cc1` gave an activation of 0.82 fold (Nuclear receptor ROR-gamma (RORC, Homo sapiens, UniProt P51449); reporter gene, Gal4 hybrid reporter; 50 µM; baseline: vehicle).

A few entries again:
For `CCn1c(=O)[nH]c2cc(C(=O)NC(c3ccc(F)cc3)c3cnn(C)c3)ccc2c1=O` (centres unmarked), the SPR response was 4.93 RU (WD repeat-containing protein 91; binding, SPR steady state; 0.4688 µM).
The remaining activity of `COc1cc(Nc2ncc3c(n2)-c2ccc(Cl)cc2C(c2c(F)cccc2OC)=NC3)ccc1C(=O)O` is reported as 104% (PRKG2; kinase activity; 1 µM).
Under “binding enthalpy (ΔH)”, `Nc1ncnc2c1ncn2[C@@H]1O[C@H](COP(=O)(O)OP(=O)(O)NP(=O)(O)O)[C@@H](O)[C@H]1O` is recorded as -1.9 kcal/mol (Cell cycle histidine kinase CckA, CA domain (Caulobacter vibrioides, UniProt Q9X688); isothermal titration calorimetry; Caulobacter crescentus; concentration not given, 12 °C, added: without c-di-GMP).
